{"data": "Measurements from different studies", "note": "Each numbered part is a random draw from the data of one study; scales do not carry over between parts."}
{"data": "Sample 1", "target": "Prothrombin, mature alpha-thrombin (F2, Homo sapiens, UniProt P00734)", "technique": "aptamer microarray, sandwich", "molecule type": "DNA with 2'F-ANA", "medium": "in vitro", "tested at": "200 nM", "setting": "whole 15-mer aptamer, many near background", "added": "Cy3 exosite-II aptamer, 400 nM", "reading": "higher = stronger binding", "sequence": "GGTTGGTGTGGTTGG"}
{"Modification": "2'F-ANA at 1 2 3 4 9 10 11 12 13 15", "mean fluorescence intensity [a.u.]": 623}
{"Modification": "2'F-ANA at 2 3 4 5 7 8 9 10 12 14 15", "mean fluorescence intensity [a.u.]": 51.9}
{"Modification": "2'F-ANA at 1 3 4 6 8 11 13 14", "mean fluorescence intensity [a.u.]": 63.1}
{"Modification": "2'F-ANA at 1 2 5 7 10 11 12 13 14 15", "mean fluorescence intensity [a.u.]": 48.9}
{"Modification": "2'F-ANA at 2 5 7 15", "mean fluorescence intensity [a.u.]": 73.8}
{"Modification": "2'F-ANA at 1 2 5 6 7 8 9 10 11 12", "mean fluorescence intensity [a.u.]": 53.2}
{"data": "Sample 2", "target": "Histone acetyltransferase KAT6A, winged helix 2, GST fusion (KAT6A, Homo sapiens, UniProt Q92794, residues 85-181)", "technique": "protein binding microarray", "molecule type": "double-stranded DNA, one strand shown", "medium": "in vitro", "tested at": "not given", "setting": "8-mer, flanks averaged, mean of 2 arrays, mostly near background", "relative to": "not given", "reading": "higher = stronger binding", "Residues (chain)": "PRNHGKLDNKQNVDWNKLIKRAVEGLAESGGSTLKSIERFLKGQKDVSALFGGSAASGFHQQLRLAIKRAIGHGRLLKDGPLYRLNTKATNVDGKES"}
{"Sequence": "ACCATATA", "E-score": -0.0112}
{"Sequence": "GATTTGCC", "E-score": 0.113}
{"Sequence": "GTCTTCAA", "E-score": -0.0849}
{"Sequence": "CTGACAGC", "E-score": -0.0196}
{"Sequence": "CAAGACCG", "E-score": -0.0427}
{"Sequence": "AGCCTTTA", "E-score": -0.164}
{"Sequence": "ACGCCATA", "E-score": -0.101}
{"data": "Sample 3", "target": "Centromere-binding protein 1, full length, His-tagged (CBF1, Saccharomyces cerevisiae, UniProt P17106, residues 1-351)", "technique": "competition protein-binding microarray", "molecule type": "double-stranded DNA, one strand shown", "medium": "in vitro", "tested at": "2 µM", "setting": "whole 60-bp probe, lowest competitor level", "added": "Pho4 competitor, 0.05 µM", "reading": "higher = stronger binding", "UniProt P17106, sequence (whole entry, looked up)": "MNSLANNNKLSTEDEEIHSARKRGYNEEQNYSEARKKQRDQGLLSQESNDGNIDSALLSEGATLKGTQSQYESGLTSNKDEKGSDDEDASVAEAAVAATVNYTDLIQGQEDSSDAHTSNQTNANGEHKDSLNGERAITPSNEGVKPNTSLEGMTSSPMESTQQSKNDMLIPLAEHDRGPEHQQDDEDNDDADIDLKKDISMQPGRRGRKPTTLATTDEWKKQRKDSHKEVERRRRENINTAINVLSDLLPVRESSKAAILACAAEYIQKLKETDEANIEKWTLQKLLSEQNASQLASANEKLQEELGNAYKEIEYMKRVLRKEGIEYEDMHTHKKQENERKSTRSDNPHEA"}
{"Sequence": "CTTCTGTAAATTTTTCACGTGGATTGACGCGCCCCGGTCTTGATTCGCTTGACGCTGCTG", "fluorescence intensity [a.u.]": 569}
{"Sequence": "TGCGCAACAACTTGTCACACTACTTTATGTCTAGAAGTCTTGATTCGCTTGACGCTGCTG", "fluorescence intensity [a.u.]": 105}
{"Sequence": "CCCTTGTCATTTTCCCAGGTGACGCTGAATTGTATGGTCTTGATTCGCTTGACGCTGCTG", "fluorescence intensity [a.u.]": 143}
{"Sequence": "CTTCTGTAAATTTGAGACGTGGGTGGACGCGCCCCGGTCTTGATTCGCTTGACGCTGCTG", "fluorescence intensity [a.u.]": 67}
{"data": "Further values, each from its own experiment"}
{"Molecule": "PhoQ, residues 284 288 289 292 302 303 ALAMYF", "target": "PhoP, residues 12 14 15 18 19 TQALL (Escherichia coli, UniProt P23836)", "assay": "Sort-seq, item: YFP reporter", "system": "E. coli", "setting": "PhoQ-PhoP variant library, added: 10 µM Mg2+", "scale": "relative to: high Mg2+ state, higher = stronger signaling", "endpoint": "fold induction", "result": 1.16}
{"note": "Some of these lines once more (sample 1):"}
{"Modification": "2'F-ANA at 1 2 3 4 9 10 11 12 13 15", "mean fluorescence intensity [a.u.]": 623}
{"Modification": "2'F-ANA at 2 3 4 5 7 8 9 10 12 14 15", "mean fluorescence intensity [a.u.]": 51.9}
